Experimental data from different studies.
Each line is one published result; not all experiments were run side by side. Values joined by “and” are separate records of one study, mostly repeats; a detail may differ. ± gives the spread as reported.

O=c1[nH]nc(OCCCc2ccc(Cl)cc2)c(NCc2cccnc2)c1Br
normalized enrichment score (HEK-293T; RNA-seq GSEA, refers to: HALLMARK_KRAS_SIGNALING_DN; concentration not given; direction not given): -1.08

CCOc1ccc(N(C)S(=O)(=O)c2ccsc2C(=O)Nc2cccc(C(=O)O)c2)cc1
activity (CCF-STTG1; ABCA1 promoter reporter; concentration not given): inactive

C[C@@H]1CN(C(=O)c2ccc(NC(=O)c3cc(O[C@H](C)c4c(Cl)ccc(F)c4Cl)c(N)nn3)cc2)C[C@H](C)N1
Emax (NCI-H2228 (EML4-ALK variant 3); cell viability): 27.6%

NC(N)=NC(=O)c1nc(Cl)c(N2CCCCCC2)nc1N
intracellular acidification (human neutrophils; 10 µM, pHo 6.70, with: 100 mM sulfate): no effect

C[C@H]1Oc2cc(cnc2N)-c2c(nn(C)c2C#N)CN(C)C(=O)c2ccc(F)cc21
Emax (NCI-H2228 (EML4-ALK variant 3); cell viability): 33.2%

Nc1ncnc2nc(-c3ccc(N4CCOCC4)nc3)cc(-c3cccc(Br)c3)c12
T cell proliferation (activated T cells; concentration not given, with: adenosine 100 µM; relative to: DMSO control): 93.2% and 95% and 96.9%

c1ccc2c(c1)cc1ccc3cccc4ccc2c1c34
monohydroxylated imiquimod metabolite formation (HaCaT keratinocytes; LC-MS; 0.5 µM, 24 h pretreatment, then 6 h, with: imiquimod 0.5 µM; relative to: untreated): ~10 fold

C#C[C@@]1(O)[C@@H](CO)O[C@@H](n2cc(F)c3c(N)ncnc32)[C@@H]1O
TGI (Malme-3M; SRB; NCI-60 screen): 1810 nM

[Cl-].[Cl-].[Os+2].c1cnc2c(c1)ccc1cccnc12.c1cnc2c(c1)ccc1cccnc12.c1cnc2c(c1)ccc1cccnc12
GI50 (SK-MEL-28; sulforhodamine B; normoxia, with: red light 633 nm): 15200 nM

COC(=O)Nc1nc2ccc(C(=O)c3cccs3)cc2[nH]1
G2/M cells (tsFT210 G2-synchronised; flow cytometry; 100 nM, 4 h after release at 32 °C): 91.3%

Cc1n[nH]c2nc(-c3ccc(Cl)cc3)c3c(NC(=O)c4ccccc4)nnc-3n12
growth percent (MDA-MB-231/ATCC; NCI60 SRB; 10 µM): 94.3%

Cc1cc(Nc2ncc(Cl)c(Nc3ccccc3S(=O)(=O)C(C)C)n2)c(OC(C)C)cc1C1CCNCC1
log2 fold change (CLB-BAR; phosphoproteomics LC-MS/MS, refers to: SUN2 phosphorylation; 200 nM, 60 min; relative to: untreated): -2.51

NC(=O)c1ncn([C@@H]2O[C@H](CO)[C@@H](O)[C@H]2O)n1
growth inhibition (FaDu; CCK-8; 10 µM, 96 h, parental cells, with: cytarabine 40 nM): 50%

COC1=CC(=O)C=C(OC)C1=O
viability (MCF-10A; CellTiter-Glo; concentration not given; relative to: normalised, mean of replicates): 80.2%

Cc1cccc(-c2[nH]c(CNc3ccccc3F)nc2-c2ccc3ncnn3c2)n1
viability (MM1.S; XTT; 0.2 µM; relative to: untreated): 91%

COc1ccc(NC(=O)c2c(Nc3ccccc3)sc(C(=O)NN=Cc3ccc(OC)c(O)c3)c2NC(C)=O)cc1
Bax level (HepG2; ELISA; IC50, 24 h): 215 ± 30.1 pg/mL

CN1CCN(c2ccc3[nH]c(-c4ccc5[nH]c(-c6ccc(C(F)(F)F)cc6)nc5c4)nc3c2)CC1
growth percent (Malme-3M; SRB; 10 µM, 48 h): 18%

COc1cnc2cccc(N3CCc4c(cc(Cn5ccnc5C)cc4-c4cn(C)nc4C(F)(F)F)C3=O)c2c1
EC50 (FaDu; cell growth, inhibitor; 120 h): > 30000 nM

C=CC(=O)N1CCC(COCC(=O)N2CCN(c3nc(-c4cnc(N)nc4C(F)F)nc(N4CCOC[C@@H]4C)n3)CC2)CC1
GR50 (MDA-MB-453; resazurin growth rate inhibition; 72 h): 0.8 nM

COc1cc2ncnc(Nc3ccc(Oc4ccccc4)c(C)c3C)c2cc1OC.Cl
Bliss synergy score (LoVo (KRAS G13D); cell viability; concentration not given, 72 h, with: trametinib; direction not given): -27.1%

Cn1cc(-c2ccc(-c3cncc(Cl)c3N3CCC4(CCNC4=O)CC3)cc2)cn1
log2 fold change (COLO 205; gene expression, microarray, refers to: AOC3 mRNA; concentration not given, 2 h; relative to: untreated cells): 2.19

O=C(/C=C/C=C/C=C/C1CCCCC1)NC1=C[C@@](O)(/C=C/C=C/C=C/C(=O)NC2=C(O)CCC2=O)[C@@H]2O[C@@H]2C1=O
GI50 (WM-1799; cell growth, CellTiter-Glo; 78 h): 8630 nM

COc1c(C)c(OC(C)=O)c(C)c(O)c1C(=O)/C=C/c1ccccc1
selectivity index (FaDu; SRB; relative to: normal over FaDu IC50): 0.85

C=Cc1c2[n-]c(c1C)/C=c1\[n-]/c(c(C)c1C=C)=C\c1[n-]c(c(CCC(=O)O)c1C)/C=c1\[n-]c(c(C)c1CCC(=O)O)=C2.[Sn+4]
fold change (SH-SY5Y; RNA-seq, refers to: FHL2 mRNA; 5 µM, 5 h; relative to: untreated cells): 1.95

CC(CN(C)C)CN1c2ccccc2CCc2ccccc21 (stereo not shown)
trans-stimulated efflux (hCMEC/D3; H+/OC antiport; 250 µM, 2 min, with: preloaded DPH): ≤ 90%

CCn1cc(-c2cc(Cn3ccnc3)cc3c2CCN([C@H](c2cc(OC)ccn2)C2CC2)C3=O)c(C(F)(F)F)n1
EC50 (SNU1066; cell growth; 120 h): > 30000 nM

O=C(Nc1nnc2[nH]c(=S)[nH]c(-c3ccc(Cl)cc3)c1-2)c1ccccc1
cell growth (Malme-3M; SRB; 10 µM, NCI60 single-dose screen; relative to: untreated): 89.1%

Nc1cccc2c1C(=O)N(C1CCC(=O)NC1=O)C2=O (stereo not shown)
surface marker level (RPMI-8226; flow cytometry, refers to: CD71; concentration not given; relative to: comparator compound alone): 239%

CC(C)(C)c1cc(O)ccc1O
point of departure (HepG2; respiratory reserve capacity, extracellular flux; 1 h, distribution mode 1): 0.0112 µM

Cn1cc(-n2cnc3c(NCc4nc5cc(Cl)c(Cl)cc5[nH]4)nc(N4CCOCC4)nc32)cn1
luminescence signal (MDA-MB-468; cell viability, CellCounting-Lite; 0.3048 nM, 37 °C; higher = more viable cells): 429000 a.u. and 516000 a.u. and 513000 a.u.

Cc1nn(-c2nc3c(F)cc(F)cc3s2)c(O)c1C(c1ccc(C(F)(F)F)cc1)c1c(C)nn(-c2nc3c(F)cc(F)cc3s2)c1O
phospho-TBK1/TBK1 ratio (RAW-ISG; western blot; 10 µM, with: HT-DNA; relative to: vehicle): 0.846 and 1.04 and 0.832

COc1ccc(NC(=S)N/N=C/c2cccc3cc4ccccc4nc23)cc1
cells in S phase (HeLa; PI flow cytometry; IC50, 48 h): 39%

CC(C)(C)C(=O)Oc1ccc(S(=O)(=O)Nc2ccccc2C(=O)NCC(=O)O)cc1
neutrophil swelling (human peripheral blood neutrophils; flow cytometry FSC/SSC; 500 µM, with: TNF-α 5 ng/mL, MPO-ANCA immune complex; relative to: unstimulated neutrophils): 1.44 fold change and 2.1 fold change and 2.48 fold change and 2.45 fold change

CC(=O)OCOC(=O)CN(CC(=O)OCOC(C)=O)c1ccccc1OCCOc1ccccc1N(CC(=O)OCOC(C)=O)CC(=O)OCOC(C)=O
phospho-AMPKα levels, and phospho-ACC1 (C3H10T1/2-derived adipocytes overexpressing Dlat-Flag; 20 µM, 24 h; relative to: Dlat overexpression without compound): inhibited

Cc1cc(-c2ccccc2)n(-c2nc(-c3ccc(Cl)cc3)c3c(NC(=O)c4ccccc4)nnc-3[nH]2)n1
growth percent (MDA-MB-231/ATCC; NCI60 SRB; 10 µM): 94.2%

Cn1cc(Nc2nccc(-c3ccc4c(c3)CN(C3COC3)CC[C@H]4NC(=O)c3cn(C(C)(C)C)nn3)n2)cn1
pathway activation z-score (mouse splenic B cells; refers to: ERK/MAPK signalling; 30 mg/kg, IgD-activated in vivo; relative to: vehicle, direction not given): 2.12

CCCN1CCN(c2ccc3nc(-c4ccc5nc(-c6cc(OC)ccc6OC)[nH]c5c4)[nH]c3c2)CC1
growth percent (OVCAR-4; SRB; 10 µM, 48 h): 81.1%

Cc1c(C(=O)O)ccc2c3n(nc12)[C@@H]1[C@H](C3)N(CC2CC2)[C@@]2(C(=O)Nc3cc(Cl)ccc32)[C@H]1c1cccc(Cl)c1F
GI50 (DK-MG; cell growth, alamarBlue; unbound): 0.11 nM

Cc1cc(C)nc(SCC(=O)Nc2ncc(Cc3cccc(OCc4cn(Cc5ccccc5C)nn4)c3)s2)n1
inhibition (PC-3M-luc; cell viability, MTS; 10 µM): 22 ± 1.4%

Cl.Cl.NCCNS(=O)(=O)c1ccc(Cl)c2ccncc12
relative cell number (SK-OV-3; ATP; 2D monolayer culture; 1 µM, 4 days; relative to: untreated): 118%

CCn1cc(-c2cc(Cn3ccoc3=N)cc3c2CCN([C@@H](C)c2cc(OC)ccn2)C3=O)c(C(F)(F)F)n1
EC50 (HuCCT-1; cell growth, inhibitor; 120 h): 3000 nM

O=C(Nc1ccncc1)c1cc([N+](=O)[O-])ccc1Cl
EC90 (Toxoplasma gondii; parasite growth; HFF, bradyzoite, alkaline-induced): 2910 nM

CCCCN1C[C@H](O)[C@@H](O)[C@@H](O)[C@H]1CO
IC50 (sample B patient fibroblasts; Gb3 level lowering, LC-MS/MS, refers to: Gb3 d18:1/16:0; 216 h): 8700 nM

C=CC1=C(C)c2cc3[n-]c(cc4nc(cc5[n-]c(cc1n2)c(C)c5C=C)C(C)=C4CCC(=O)O)c(CCC(=O)O)c3C.[Zn+2]
fold change (SH-SY5Y; RNA-seq, refers to: CEBPD mRNA; 5 µM, 5 h; relative to: untreated cells): 3.31

N#Cc1ccc(C[C@H](NC(=O)c2cc3cc(F)ccc3[nH]2)C(=O)N2CCc3ccccc32)cc1
EC50 (human neutrophils; calcium mobilization, agonist): 300 ± 200 nM

C=CCNC1=C2C[C@@H](C)C[C@H](OC)[C@H](O)[C@@H](C)/C=C(\C)[C@H](OC(N)=O)[C@@H](OC)/C=C\C=C(/C)C(=O)NC(=CC1=O)C2=O
bottom of curve (MYBPC3 mutant iPSC-derived cardiomyocytes; refers to: MYH; relative to: vehicle): 57.5%

Cl
Km (human neutrophils; anion exchange, substrate, trans-stimulated sulfate efflux; 85 mM K+, glucuronate medium, with: nigericin 2 µM): 22.4 mM

C=CCn1c(=O)c2cnc(Nc3ccc(N4CCN(C)CC4)cc3)nc2n1-c1ccc2c(n1)[C@@](O)(CC)CC2
G2/M cells in subpopulation (Kuramochi; flow cytometry, refers to: pHH3-γH2Ax-; concentration not given): 83.1%

CN1CC2(NN=C(c3ccccc3)S2)c2ccccc21 (stereo not shown)
viability loss (SK-N-BE(2) and SK-N-SH neuroblastoma; MTT; 10 µM, 24 h): ~40%
